Assay results pooled from the literature.
Each line is one published result; not all experiments were run side by side.
Target: Fibroblast growth factor receptor 2 (FGFR2, Homo sapiens, UniProt P21802)
UniProt P21802, sequence (whole entry, looked up): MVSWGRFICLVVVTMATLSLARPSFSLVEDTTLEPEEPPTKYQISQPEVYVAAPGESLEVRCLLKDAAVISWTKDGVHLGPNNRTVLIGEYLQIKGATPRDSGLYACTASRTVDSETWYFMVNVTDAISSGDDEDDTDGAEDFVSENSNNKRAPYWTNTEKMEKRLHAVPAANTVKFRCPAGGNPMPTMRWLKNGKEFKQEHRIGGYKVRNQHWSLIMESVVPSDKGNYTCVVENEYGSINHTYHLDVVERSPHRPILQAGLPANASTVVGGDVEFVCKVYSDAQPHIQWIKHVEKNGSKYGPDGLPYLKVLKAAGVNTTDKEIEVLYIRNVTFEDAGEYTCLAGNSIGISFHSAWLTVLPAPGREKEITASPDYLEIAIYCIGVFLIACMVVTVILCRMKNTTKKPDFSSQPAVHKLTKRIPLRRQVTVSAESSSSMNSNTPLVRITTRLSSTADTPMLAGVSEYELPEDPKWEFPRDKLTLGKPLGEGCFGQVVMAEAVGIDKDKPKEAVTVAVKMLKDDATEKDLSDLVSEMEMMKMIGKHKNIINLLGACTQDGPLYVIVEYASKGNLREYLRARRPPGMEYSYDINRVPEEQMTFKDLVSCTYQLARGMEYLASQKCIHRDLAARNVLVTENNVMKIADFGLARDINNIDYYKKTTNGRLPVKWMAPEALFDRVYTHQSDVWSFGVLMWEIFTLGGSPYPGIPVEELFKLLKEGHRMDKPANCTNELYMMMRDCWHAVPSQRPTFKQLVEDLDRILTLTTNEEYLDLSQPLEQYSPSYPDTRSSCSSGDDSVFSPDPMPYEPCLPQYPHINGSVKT

COCCOCCOc1cc2nccc(Oc3ccc(NC(=O)NC4CC4)c(Cl)c3)c2cc1C(N)=O — IC50 (enzyme activity, inhibitor): 40 nM
Cc1nc2ccc(Cc3c[nH]c4ncc(C(F)(F)F)cc34)cc2o1 — IC50 (enzyme activity, inhibitor): 259 nM
CN1CCN(c2ccc(/C=C3\C(=O)Nc4ccc(-c5ccc(-c6ccc(O)cc6)cc5)cc43)cc2)CC1 — IC50 (enzyme activity, inhibitor): 6970 nM
O=c1[nH]c2ccccc2nc1/C=C/c1ccccc1Br — IC50 (enzyme activity, inhibitor, TR-FRET): > 100000 nM
C=CC(=O)N1CC=C(c2c(-c3ccc(Oc4cccc(C)n4)cc3)c3c(N)ncnc3n2C)C1 — IC50 (Caliper mobility shift; 30 min preincubation, with: 100 µM ATP): 6 nM
Cc1[nH]nc2c1N=C(c1ccccc1Cl)c1cnc(N3CCOCC3)cc1N2 — IC50 (enzyme activity, inhibitor): 1.5 nM
COc1cc(OC)cc(C(O)c2c[nH]c3ncc(C(F)(F)F)cc23)c1 (centres unmarked) — IC50 (enzyme activity, inhibitor): 66 nM
C=CC(=O)N1CCC(c2c(-c3ccc(OC)cc3)c3c(N)ncnc3n2C)C1 (centres unmarked) — IC50 (Caliper mobility shift; 30 min preincubation, with: 100 µM ATP): 480 nM

For quick reference, copied from above:
C=CC(=O)N1CC=C(c2c(-c3ccc(Oc4cccc(C)n4)cc3)c3c(N)ncnc3n2C)C1 — IC50 (Caliper mobility shift; 30 min preincubation, with: 100 µM ATP): 6 nM
